Assay results pooled from the literature.
Lines come from different studies, so protocols differ. Several values in a cell are separate wells, animals, samples, runs or records. Numbers after ± are the reported error. Converted amounts (≈) assume the structure as drawn.

`CCCC(=O)OCSc1ccccc1C(=O)NCCn1cc(C(=O)NCc2ncccc2C)c(=O)c2cc3c(cc21)OCO3` gave an EC50 of 510 ± 20 nM (HIV-1; virus-induced cytopathic effect, inhibitor, XTT; CEM-SS, RF; 6 days).
The mRNA level of `O=C(C#Cc1ccc(F)c(F)c1)c1cccc(Cl)c1` is reported as 33% (Pseudomonas aeruginosa; RT-qPCR, measured: lasB; biofilm cells; 10 µM, 24 h; baseline: untreated).
`NS(=O)(=O)C#Cc1ccccc1` has an EC90 of 9.52 µM (Toxoplasma gondii; parasite growth; HFF, bradyzoite, glutamine-induced).
The MIC of `OC(Cn1cncn1)(Cn1cncn1)c1ccc(F)cc1F` is reported as 25 µM (Nakaseomyces glabratus; CG3, azole-susceptible, RPMI 1640; 24 h, 35 °C).
With `CC[C@H](C)CCCCC(=O)N[C@@H](CCN)C(=O)N[C@H](C(=O)N[C@@H](CCN)C(=O)N[C@H]1CCNC(=O)[C@H]([C@@H](C)O)NC(=O)[C@H](CCN)NC(=O)[C@H](CCN)NC(=O)[C@H](CC(C)C)NC(=O)[C@@H](CC(C)C)NC(=O)[C@H](CCN)NC1=O)[C@@H](C)O` the MIC was 1 µg/mL (Pseudomonas aeruginosa; broth microdilution; ATCC 10145, cation-adjusted Mueller-Hinton broth; 18 to 20 h, 37 °C, 0.002% polysorbate 80).
With `Cc1ccccc1C(=O)C#Cc1ccc(F)c(F)c1` the biofilm formation was 71% (Pseudomonas aeruginosa; static biofilm; PA14; 10 µM, 24 h, static; baseline: DMSO).
`CC(=Nc1ccc(N=Cc2cnccn2)cc1)N(C)C` has a worm count of 1.8 ± 0.8 (Necator americanus; infected hamsters, small intestine; oral, 50 mg/kg single, 3 h).
`O=C(C#Cc1ccc(F)c(F)c1)c1ccccc1Cl` has a mRNA level of 28% (Pseudomonas aeruginosa; RT-qPCR, measured: lasB; biofilm cells; 10 µM, 24 h; baseline: untreated).
`CC1(C)CCC2=C(O1)c1ccccc1C(=O)C2=O` gave an EC90 of 48.1 µM (Toxoplasma gondii; parasite growth, luciferase reporter; HFF, tachyzoite; 72 h).
`C[C@@H](O)[C@H]1C(=O)N2C(C(=O)O)=C(SCCN=CN)C[C@H]12` has a bacterial load of 8.72 log CFU and 8.38 log CFU and 7.6 log CFU and 8.45 log CFU (Pseudomonas aeruginosa; BAA-2797, BALB/c mouse peritonitis, peritoneal fluid; dose not given).
The IC50 of `COc1cc(-c2[o+]c3cc(O)cc(O)c3cc2O[C@@H]2O[C@H](CO)[C@@H](O)[C@H](O)[C@H]2O)ccc1O` is reported as > 100 µM (HIV-1; viral infection; TZM-bl, NL4-3 (CXCR4-tropic); 48 h).
`Oc1ccc(-c2nc(-c3ccc(OC4CCCC4)cc3)no2)cc1` — result for activity: “active” (Clostridioides difficile; ATCC 43255; 45 µM, spores).
The biofilm formation of `COc1cc(C#CC(=O)c2cccc(Cl)c2)ccc1O` is reported as 67% (Pseudomonas aeruginosa; static biofilm; PA14; 10 µM, 24 h, static; baseline: DMSO).
`Cl.NCc1ccc(-c2nc(-c3ccc(OC(F)F)cc3)no2)cc1` — result for activity: “inactive” (Clostridioides difficile; spore germination; ATCC 43255; 45 µM).
With `COc1cc(C#CC(=O)c2ccccc2OC)ccc1O` the mRNA level was 36% (Pseudomonas aeruginosa; RT-qPCR, measured: lasB; biofilm cells; 10 µM, 24 h; baseline: untreated).
For `OC[C@H]1O[C@@H](O[C@@H]2[C@@H](O)[C@H](O[C@H]3[C@H](O)[C@@H](CO)OC(O)[C@@H]3O)O[C@H](CO)[C@H]2O)[C@H](O)[C@@H](O)[C@@H]1O` (stereo partly drawn), the -TΔS was -2.16 kcal/mol (Bacteroides uniformis; binding, ITC; pH 7.0, 25 °C, distal domain).
`Cc1cc(OC(C)C)ccc1C(=O)C(C)(C)NC(=O)c1sccc1C` gave an inhibition of 30.1 ± 3.8% (Botrytis cinerea; conidial germination; B05.10; 0.3 µg/mL).
`Cc1cc(Nc2ccc(S(F)(F)(F)(F)F)cc2)n2nc(C(C)(F)F)nc2n1`: “time to parasitaemia nadir, lower bound” 54 h (Plasmodium falciparum; human).
With `N=C(N)c1ccc(OCc2cc(Br)cc(COc3ccc(C(=N)N)cc3)c2)cc1` the FICI was ≤ 0.063 (Escherichia coli; checkerboard; W3110; unit not given, with: rifampicin; lower = stronger synergy).
`O=c1[nH]cc(F)c(=O)[nH]1` gave an EC90 of 10.8 µM (Toxoplasma gondii; parasite growth; HFF, bradyzoite, alkaline-induced).
For `OC[C@H]1O[C@@H](O[C@@H]2[C@@H](O)[C@H](O[C@@H]3[C@@H](O)[C@H](O[C@@H]4[C@@H](O)[C@H](O[C@H]5[C@H](O)[C@@H](CO)OC(O)[C@@H]5O)O[C@H](CO)[C@H]4O)O[C@H](CO)[C@H]3O)O[C@H](CO)[C@H]2O)[C@H](O)[C@@H](O)[C@@H]1O` (stereo partly drawn), the ΔG was -24.8 kcal/mol (Bacteroides uniformis; binding, ITC; pH 7.0, 25 °C, middle domain).
`O=c1[nH]c(NCc2ccc(Cl)c(Cl)c2)nc2ncn(CCCCCN3CCOCC3)c12` has an MIC of 0.5 µg/mL (Clostridioides difficile; agar dilution anaerobic; 3588; 48 h).
`c1ccc(-c2ccc3c(c2)NC(C2Nc4cc(-c5ccccc5)ccc4O2)O3)cc1` (stereo not drawn) has an IC50 of 14.9 ± 6.78 µM (Leishmania donovani; parasite growth; THP-1-derived macrophages, intracellular amastigotes; 48 h).
`CC(C)(C)c1cc(/C=C(\C#N)C(N)=S)cc(C(C)(C)C)c1O` gave an EC90 of 16.3 µM (Toxoplasma gondii; parasite growth, luciferase reporter; HFF, tachyzoite; 72 h).
For `O=C(Cn1ccnc1[N+](=O)[O-])NCc1ccccc1`, the selectivity index was > 82.4 (Trypanosoma cruzi; Vero, Tulahuen β-galactosidase; baseline: Vero CC50 over T. cruzi IC50).
For `CCCC(=O)OCSc1ccccc1C(=O)NCCOc1ccnc2ccc(Cl)cc12`, the EC50 was > 46300 nM (HIV-1; virus-induced cytopathic effect, inhibitor, XTT; CEM-SS, RF; 6 days).
`Cc1c2c(nn1C)CSCc1cc(n(C)n1)CSc1cc(c3ccccc3c1)OCCCc1c(C(=O)O)n(C)c3c-2c(Cl)ccc13` gave an MIC90 of 12.5 µM (≈ 8.4 µg/mL) (Staphylococcus aureus; broth microdilution; clinical isolates).
`N=C(N)c1ccc(OCc2ccc(-c3ccccc3)cc2COc2ccc(C(=N)N)cc2)cc1` — result for “MIC of compound in combination”: 1.56 µg/mL (Escherichia coli; checkerboard; mcr-2 polymyxin-resistant; concentration not given, 20 h, with: rifampicin).
With `CC(=O)OC[C@H]1O[C@@H]([S-])[C@H](OC(C)=O)[C@@H](OC(C)=O)[C@@H]1OC(C)=O.CCP(CC)CC.[Au+]` the EC50 was 950 nM (Toxoplasma gondii; parasite growth; HFF, bradyzoite, alkaline-induced).
`CCCCCCCCCC(=O)N[C@@H](Cc1c[nH]c2ccccc12)C(=O)N[C@H](CC(N)=O)C(=O)N[C@@H](CC(=O)O)C(=O)N[C@@H]1C(=O)NCC(=O)N[C@@H](CCCN)C(=O)N[C@@H](CC(=O)O)C(=O)N[C@H](C)C(=O)N[C@@H](CC(=O)O)C(=O)NCC(=O)N[C@H](CO)C(=O)N[C@@H]([C@H](C)CC(=O)O)C(=O)N[C@@H](CC(=O)c2ccccc2N)C(=O)O[C@@H]1C` gave an MIC of 1 µg/mL (Staphylococcus aureus; SH1000; with: lysophosphatidylethanolamine, molar ratio 2).
With `CCc1nc(N)nc(N)c1-c1ccc(Cl)cc1` the parasite survival was 98.9% (Toxoplasma gondii; [3H]uracil incorporation; human fibroblasts, RH wild type; 5 µM).
`OC[C@H]1O[C@@H](O[C@@H]2[C@@H](O)[C@H](O[C@@H]3[C@@H](O)[C@H](O[C@H]4[C@H](O)[C@@H](CO)OC(O)[C@@H]4O)O[C@H](CO)[C@H]3O)O[C@H](CO)[C@H]2O)[C@H](O)[C@@H](O)[C@@H]1O` (stereo partly drawn) gave a -TΔS of 6.64 kcal/mol (Bacteroides uniformis; binding, ITC; pH 7.0, 25 °C, distal domain).
`COc1cc(C#CC(=O)c2cccc(C)c2)ccc1O` gave a biofilm formation of 77% (Pseudomonas aeruginosa; static biofilm; PA14; 10 µM, 24 h, static; baseline: DMSO).
For `CC(C)n1ncc2c(C(=O)NCC3(C)CNC3)cc(C3CC3)nc21`, the cell protection was 0.928% and 1.19% and 1.59% (Enterovirus D68; cytopathic effect; RD, US/MO/14-18947; 150 nM).
For `Cc1cn([C@H]2C[C@H](N=[N+]=[N-])[C@@H](CO)O2)c(=O)[nH]c1=O`, the EC50 was 5 ± 1 nM (HIV-1; viral cytopathic effect, XTT; CEM-SS, RF; with: glutathione 2 mM).
With `COc1cc(C#C[C@@H](O)CC(C)C)ccc1O` the biofilm formation was 69% (Pseudomonas aeruginosa; static biofilm; PA14; 10 µM, 24 h; baseline: DMSO).
`C=C1C(=O)O[C@H]2[C@H]1CC/C(C)=C/CC[C@@]1(C)O[C@@H]21` gave an EC90 of 1190 µM (Toxoplasma gondii; parasite growth; HFF, bradyzoite, glutamine-induced).
Under cell morphology, `Cc1ncc([N+](=O)[O-])n1CCO` is recorded as “no effect” (Clostridioides difficile; scanning electron microscopy; ATCC 43255; 8 x MIC, 24 h).
`COc1cccc(C(=O)C#Cc2ccc(O)c(OC)c2)c1` gave a biofilm formation of 65% (Pseudomonas aeruginosa; static biofilm; PA14; 10 µM, 24 h, static; baseline: DMSO).
With `Fc1ccccc1N/N=C/c1ccc(-c2cccc(/C=N/Nc3ccccc3F)c2)cc1` the selectivity index was < 0.5 (Nakaseomyces glabratus; ATCC 2001; baseline: mammalian CC50 over MIC).
With `CC[C@H]1CN2CCc3cc(OC)c(OC)cc3[C@@H]2C[C@@H]1C[C@H]1NCCc2cc(OC)c(OC)cc21` the EC50 was 31 nM (Toxoplasma gondii; parasite growth, luciferase reporter; HFF, tachyzoite; 72 h).
For `OC[C@H]1O[C@@H](O[C@@H]2[C@@H](O)[C@H](O[C@@H]3[C@@H](O)[C@H](O[C@@H]4[C@@H](O)[C@H](O[C@@H]5[C@@H](O)[C@H](O[C@H]6[C@H](O)[C@@H](CO)OC(O)[C@@H]6O)O[C@H](CO)[C@H]5O)O[C@H](CO)[C@H]4O)O[C@H](CO)[C@H]3O)O[C@H](CO)[C@H]2O)[C@H](O)[C@@H](O)[C@@H]1O` (stereo partly drawn), the ΔG was -26.3 kcal/mol (Bacteroides uniformis; binding, ITC; pH 7.0, 25 °C, distal domain).
`Cc1ncc([N+](=O)[O-])n1CCO` gave an MIC of 0.5 µg/mL (Clostridioides difficile; agar dilution anaerobic; 3588; 48 h).
With `C[C@H]1[C@H](OC(=O)CCC(=O)O)O[C@@H]2O[C@@]3(C)CC[C@H]4[C@H](C)CC[C@@H]1[C@@]24OO3` the inhibition was 59.2% (hepatitis E virus; viral replication, Renilla luciferase replicon; S10-3 replicon, genotype 1; 23.43 µM, 48 h).
With `[H]/N=C(/NCCCCC)N/N=C/c1c[nH]c2ccc(OC)cc12` the EC50 was 5540 nM (Toxoplasma gondii; parasite growth, luciferase reporter; HFF, tachyzoite; 72 h).
`Nc1nc(-c2ccccc2)nc2[nH]nc(Nc3ccc(C(F)(F)F)cc3)c12` gave a clinical score of 0.4 (coxsackievirus B3; 31-1-93, NMRI mice, CVB3 chronic myocarditis; oral, 100 mg/kg twice daily, day 3, dosed days 3 to 10, score scale 0 to 7; direction not given).
The EC50 of `Cc1ccc(Nc2cnnc3ccc(-c4ccc(N5CCN(C)CC5)cc4)cc23)cn1` is reported as 900 nM (Leishmania donovani; B10R cells).
`CC(=O)NC[C@H]1CN(c2ccc(N3CCOCC3)c(F)c2)C(=O)O1` gave an MIC50 of 1 µg/mL (≈ 2.96 µM) (Streptococcus pneumoniae; penicillin-resistant, 10 isolates; pH 5.5).

For quick reference, copied from above:
The MIC of `OC(Cn1cncn1)(Cn1cncn1)c1ccc(F)cc1F` is reported as 25 µM (Nakaseomyces glabratus; CG3, azole-susceptible, RPMI 1640; 24 h, 35 °C).
With `CC[C@H](C)CCCCC(=O)N[C@@H](CCN)C(=O)N[C@H](C(=O)N[C@@H](CCN)C(=O)N[C@H]1CCNC(=O)[C@H]([C@@H](C)O)NC(=O)[C@H](CCN)NC(=O)[C@H](CCN)NC(=O)[C@H](CC(C)C)NC(=O)[C@@H](CC(C)C)NC(=O)[C@H](CCN)NC1=O)[C@@H](C)O` the MIC was 1 µg/mL (Pseudomonas aeruginosa; broth microdilution; ATCC 10145, cation-adjusted Mueller-Hinton broth; 18 to 20 h, 37 °C, 0.002% polysorbate 80).
With `Cc1ccccc1C(=O)C#Cc1ccc(F)c(F)c1` the biofilm formation was 71% (Pseudomonas aeruginosa; static biofilm; PA14; 10 µM, 24 h, static; baseline: DMSO).
`CC(=Nc1ccc(N=Cc2cnccn2)cc1)N(C)C` has a worm count of 1.8 ± 0.8 (Necator americanus; infected hamsters, small intestine; oral, 50 mg/kg single, 3 h).
`O=C(C#Cc1ccc(F)c(F)c1)c1ccccc1Cl` has a mRNA level of 28% (Pseudomonas aeruginosa; RT-qPCR, measured: lasB; biofilm cells; 10 µM, 24 h; baseline: untreated).
`CC1(C)CCC2=C(O1)c1ccccc1C(=O)C2=O` gave an EC90 of 48.1 µM (Toxoplasma gondii; parasite growth, luciferase reporter; HFF, tachyzoite; 72 h).
`C[C@@H](O)[C@H]1C(=O)N2C(C(=O)O)=C(SCCN=CN)C[C@H]12` has a bacterial load of 8.72 log CFU and 8.38 log CFU and 7.6 log CFU and 8.45 log CFU (Pseudomonas aeruginosa; BAA-2797, BALB/c mouse peritonitis, peritoneal fluid; dose not given).
The IC50 of `COc1cc(-c2[o+]c3cc(O)cc(O)c3cc2O[C@@H]2O[C@H](CO)[C@@H](O)[C@H](O)[C@H]2O)ccc1O` is reported as > 100 µM (HIV-1; viral infection; TZM-bl, NL4-3 (CXCR4-tropic); 48 h).
